Measured values pooled from the literature.
Values joined by “and” are separate records of one study, mostly repeats; a detail may differ.
EGFR L858R: Epidermal growth factor receptor (EGFR, Homo sapiens, UniProt P00533, L858R)
EGFR: Epidermal growth factor receptor (EGFR, Homo sapiens, UniProt P00533)
EGFR L858R/T790M: Epidermal growth factor receptor (EGFR, Homo sapiens, UniProt P00533, L858R/T790M)

SMILES = C=CC(=O)N1CCCC(n2c(=O)c3ncccc3n(Cc3ccc(Oc4ccccc4)cc3)c2=O)C1 (centres unmarked); target = EGFR L858R; assay = cell-free assay, competition with immobilised ligand; setting = 1 µM; quantity = remaining binding; value = 100%
SMILES = COCC12C(=O)NC3C4(C(OC)CC1O)C1CC5(O)C(OC)C(O)C(OC(C)=O)(C1C5OC(=O)c1ccccc1)C3(O)C(OC)C24 (centres unmarked); target = EGFR; assay = kinase activity, inhibitor, ProQinase kinase profiling; setting = 25 µM; how to read = reference: control; quantity = remaining activity; value = 100% and 97%
SMILES = O=C=[N][Ru-4]123([n]4c5ccc(O)cc5c5c6c(c7cc(F)c[n+]1c7c54)C(=O)NC6=O)[S+]1CC[S+]2CC[S+]3CC1 (centres unmarked); target = EGFR; assay = enzyme activity; setting = 100 nM, human enzyme, with: 10 µM ATP; how to read = reference: untreated; quantity = remaining activity; value = 121%
SMILES = Cc1ccc(-c2c(/C=C(\C#N)C(=O)NC(C)C)n(CCCO)c3ncnc(N)c23)cc1; target = EGFR L858R/T790M; assay = cell-free assay, competition with immobilised ligand; setting = 1 µM; quantity = remaining binding; value = 95%
SMILES = CC(C)=CC1OC(C)(C)C2C=C3C(=O)C(Cl)=CC(O)C3C3C(O)C4OC4C(=O)C132 (centres unmarked); target = EGFR L858R/T790M; assay = cell-free assay, competition with immobilised ligand; setting = 10 µM; quantity = remaining binding; value = 86%
SMILES = COc1cc(Nc2nccc(-c3cnn4nc(OC)ccc34)n2)cc(C(F)(F)F)c1; target = Epidermal growth factor receptor (EGFR, Homo sapiens, UniProt P00533, T790M); assay = binding; setting = 1 µM; quantity = remaining binding; value = 77%
SMILES = CCN1CCN(Cc2ccc(C(=O)Nc3ccc(C)c(NCc4cnc5[nH]ccc5c4OC)c3)cc2C(F)(F)F)CC1; target = EGFR L858R; assay = binding, competition with immobilised ligand; setting = 1 µM; quantity = remaining binding; value = 1.6%
SMILES = C=CC(=O)N1CCc2ccc(-n3c(=O)ccc4cnc5ccc(-c6cnn(C)c6)cc5c43)cc21; target = Epidermal growth factor receptor (EGFR, Homo sapiens, UniProt P00533, del747-752/P753S); assay = KINOMEscan; setting = 1 µM; how to read = reference: control; quantity = remaining binding; value = 98%

Some of these lines once more:
SMILES = Cc1ccc(-c2c(/C=C(\C#N)C(=O)NC(C)C)n(CCCO)c3ncnc(N)c23)cc1; target = EGFR L858R/T790M; assay = cell-free assay, competition with immobilised ligand; setting = 1 µM; quantity = remaining binding; value = 95%
